Measurements of several laboratories.
Lines come from different studies, so protocols differ.
Histone H4: Histone H4 (Homo sapiens, UniProt P62805)
PLEC: PLEC (Homo sapiens, UniProt Q15149)
B1: human SMC3; sequence looked up; chain MYIKQVIIQGFRSYRDQTIVDPFSSKHNVIVGRNGSGKSNFFYAIQFVLSDEFSHLRPEQRLALLHEGTGPRVISAFVEIIFDNSDNRLPIDKEEVSLRRVIGAKKDQYFLDKKMVTKNDVMNLLESAGFSRSNPYYIVKQGKINQMATAPDSQRLKLLREVAGTRVYDERKEESISLMKETEGKREKINELLKYIEERLHTLEEEKEELAQYQKWDKMRRALEYTIYNQELNETRAKLDELSAKRETSGEKSRQLRDAQQDARDKMEDIERQVRELKTKISAMKEEKEQLSAERQEQIKQRTKLELKAKDLQDELAGNSEQRKRLLKERQKLLEKIEEKQKELAETEPKFNSVKEKEERGIARLAQATQERTDLYAKQGRGSQFTSKEERDKWIKKELKSLDQAINDKKRQIAAIHKDLEDTEANKEKNLEQYNKLDQDLNEVKARVEELDRKYYEVKNKKDELQSERNYLWREENAEQQALAAKREDLEKKQQLLRAATGKAILNGIDSINKVLDHFRRKGINQHVQNGYHGIVMNNFECEPAFYTCVEVTAGNRLFYHIVDSDEVSTKILMEFNKMNLPGEVTFLPLNKLDVRDTAYPETNDAIPMISKLRYNPRFDKAFKHVFGKTLICRSMEVSTQLARAFTMDCITLEGDQVSHRGALTGGYYDTRKSRLELQKDVRKAEEELGELEAKLNENLRRNIERINNEIDQLMNQMQQIETQQRKFKASRDSILSEMKMLKEKRQQSEKTFMPKQRSLQSLEASLHAMESTRESLKAELGTDLLSQLSLEDQKRVDALNDEIRQLQQENRQLLNERIKLEGIITRVETYLNENLRKRLDQVEQELNELRETEGGTVLTATTSELEAINKRVKDTMARSEDLDNSIDKTEAGIKELQKSMERWKNMEKEHMDAINHDTKELEKMTNRQGMLLKKKEECMKKIRELGSLPQEAFEKYQTLSLKQLFRKLEQCNTELKKYSHVNKKALDQFVNFSEQKEKLIKRQEELDRGYKSIMELMNVLELRKYEAIQLTFKQVSKNFSEVFQKLVPGGKATLVMKKGDVEGSQSQDEGEGSGESERGSGSQSSVPSVDQFTGVGIRVSFTGKQGEMREMQQLSGGQKSLVALALIFAIQKCDPAPFYLFDEIDQALDAQHRKAVSDMIMELAVHAQFITTTFRPELLESADKFYGVKFRNKVSHIDVITAEMAKDFVEDDTTHG
UniProt P05787, sequence (whole entry, looked up): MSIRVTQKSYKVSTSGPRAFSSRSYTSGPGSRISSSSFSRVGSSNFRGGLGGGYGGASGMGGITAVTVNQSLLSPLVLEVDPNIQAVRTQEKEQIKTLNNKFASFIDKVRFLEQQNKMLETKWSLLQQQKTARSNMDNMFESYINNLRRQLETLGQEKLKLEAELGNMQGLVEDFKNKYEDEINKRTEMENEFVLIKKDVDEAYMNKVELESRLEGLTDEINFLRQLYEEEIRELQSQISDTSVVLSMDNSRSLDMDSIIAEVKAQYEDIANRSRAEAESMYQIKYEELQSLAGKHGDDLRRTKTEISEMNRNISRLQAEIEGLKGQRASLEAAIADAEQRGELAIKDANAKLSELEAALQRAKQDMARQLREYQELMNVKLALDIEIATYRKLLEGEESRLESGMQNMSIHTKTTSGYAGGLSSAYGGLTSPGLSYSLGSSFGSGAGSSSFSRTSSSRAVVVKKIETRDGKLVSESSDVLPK
UniProt Q8IUD2, sequence (whole entry, looked up): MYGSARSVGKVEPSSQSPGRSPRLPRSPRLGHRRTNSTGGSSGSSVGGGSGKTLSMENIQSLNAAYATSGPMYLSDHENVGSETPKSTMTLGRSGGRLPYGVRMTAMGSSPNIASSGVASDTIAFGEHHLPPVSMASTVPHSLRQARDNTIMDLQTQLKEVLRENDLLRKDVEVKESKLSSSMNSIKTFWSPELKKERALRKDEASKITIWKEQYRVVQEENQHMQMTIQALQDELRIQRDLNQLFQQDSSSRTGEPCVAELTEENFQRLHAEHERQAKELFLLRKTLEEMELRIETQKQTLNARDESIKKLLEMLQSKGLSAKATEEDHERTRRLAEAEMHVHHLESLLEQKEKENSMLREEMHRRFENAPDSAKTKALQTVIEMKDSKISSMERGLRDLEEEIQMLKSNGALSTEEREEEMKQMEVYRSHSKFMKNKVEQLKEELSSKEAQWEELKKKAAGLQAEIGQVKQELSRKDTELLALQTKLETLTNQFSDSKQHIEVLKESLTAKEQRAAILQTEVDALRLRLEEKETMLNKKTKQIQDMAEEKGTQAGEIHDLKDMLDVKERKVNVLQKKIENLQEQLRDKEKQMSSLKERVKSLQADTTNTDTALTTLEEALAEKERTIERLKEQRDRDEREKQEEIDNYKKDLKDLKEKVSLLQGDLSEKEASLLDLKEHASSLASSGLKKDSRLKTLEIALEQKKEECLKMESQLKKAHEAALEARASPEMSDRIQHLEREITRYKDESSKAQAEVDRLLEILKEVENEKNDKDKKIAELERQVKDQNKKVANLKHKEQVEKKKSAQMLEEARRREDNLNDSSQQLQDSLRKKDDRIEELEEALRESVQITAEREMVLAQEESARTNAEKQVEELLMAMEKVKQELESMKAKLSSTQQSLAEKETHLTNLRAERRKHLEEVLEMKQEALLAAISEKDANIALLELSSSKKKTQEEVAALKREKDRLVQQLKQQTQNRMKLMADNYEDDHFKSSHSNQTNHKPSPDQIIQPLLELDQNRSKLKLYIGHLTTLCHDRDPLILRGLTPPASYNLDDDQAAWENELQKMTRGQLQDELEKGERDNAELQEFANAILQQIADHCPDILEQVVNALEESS
UniProt Q8WVH0, sequence (whole entry, looked up): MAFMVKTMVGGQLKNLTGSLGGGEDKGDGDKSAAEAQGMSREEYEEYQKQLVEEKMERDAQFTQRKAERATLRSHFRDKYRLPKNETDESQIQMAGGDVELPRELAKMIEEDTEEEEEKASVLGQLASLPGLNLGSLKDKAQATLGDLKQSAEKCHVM
UniProt P49327, sequence (whole entry, looked up): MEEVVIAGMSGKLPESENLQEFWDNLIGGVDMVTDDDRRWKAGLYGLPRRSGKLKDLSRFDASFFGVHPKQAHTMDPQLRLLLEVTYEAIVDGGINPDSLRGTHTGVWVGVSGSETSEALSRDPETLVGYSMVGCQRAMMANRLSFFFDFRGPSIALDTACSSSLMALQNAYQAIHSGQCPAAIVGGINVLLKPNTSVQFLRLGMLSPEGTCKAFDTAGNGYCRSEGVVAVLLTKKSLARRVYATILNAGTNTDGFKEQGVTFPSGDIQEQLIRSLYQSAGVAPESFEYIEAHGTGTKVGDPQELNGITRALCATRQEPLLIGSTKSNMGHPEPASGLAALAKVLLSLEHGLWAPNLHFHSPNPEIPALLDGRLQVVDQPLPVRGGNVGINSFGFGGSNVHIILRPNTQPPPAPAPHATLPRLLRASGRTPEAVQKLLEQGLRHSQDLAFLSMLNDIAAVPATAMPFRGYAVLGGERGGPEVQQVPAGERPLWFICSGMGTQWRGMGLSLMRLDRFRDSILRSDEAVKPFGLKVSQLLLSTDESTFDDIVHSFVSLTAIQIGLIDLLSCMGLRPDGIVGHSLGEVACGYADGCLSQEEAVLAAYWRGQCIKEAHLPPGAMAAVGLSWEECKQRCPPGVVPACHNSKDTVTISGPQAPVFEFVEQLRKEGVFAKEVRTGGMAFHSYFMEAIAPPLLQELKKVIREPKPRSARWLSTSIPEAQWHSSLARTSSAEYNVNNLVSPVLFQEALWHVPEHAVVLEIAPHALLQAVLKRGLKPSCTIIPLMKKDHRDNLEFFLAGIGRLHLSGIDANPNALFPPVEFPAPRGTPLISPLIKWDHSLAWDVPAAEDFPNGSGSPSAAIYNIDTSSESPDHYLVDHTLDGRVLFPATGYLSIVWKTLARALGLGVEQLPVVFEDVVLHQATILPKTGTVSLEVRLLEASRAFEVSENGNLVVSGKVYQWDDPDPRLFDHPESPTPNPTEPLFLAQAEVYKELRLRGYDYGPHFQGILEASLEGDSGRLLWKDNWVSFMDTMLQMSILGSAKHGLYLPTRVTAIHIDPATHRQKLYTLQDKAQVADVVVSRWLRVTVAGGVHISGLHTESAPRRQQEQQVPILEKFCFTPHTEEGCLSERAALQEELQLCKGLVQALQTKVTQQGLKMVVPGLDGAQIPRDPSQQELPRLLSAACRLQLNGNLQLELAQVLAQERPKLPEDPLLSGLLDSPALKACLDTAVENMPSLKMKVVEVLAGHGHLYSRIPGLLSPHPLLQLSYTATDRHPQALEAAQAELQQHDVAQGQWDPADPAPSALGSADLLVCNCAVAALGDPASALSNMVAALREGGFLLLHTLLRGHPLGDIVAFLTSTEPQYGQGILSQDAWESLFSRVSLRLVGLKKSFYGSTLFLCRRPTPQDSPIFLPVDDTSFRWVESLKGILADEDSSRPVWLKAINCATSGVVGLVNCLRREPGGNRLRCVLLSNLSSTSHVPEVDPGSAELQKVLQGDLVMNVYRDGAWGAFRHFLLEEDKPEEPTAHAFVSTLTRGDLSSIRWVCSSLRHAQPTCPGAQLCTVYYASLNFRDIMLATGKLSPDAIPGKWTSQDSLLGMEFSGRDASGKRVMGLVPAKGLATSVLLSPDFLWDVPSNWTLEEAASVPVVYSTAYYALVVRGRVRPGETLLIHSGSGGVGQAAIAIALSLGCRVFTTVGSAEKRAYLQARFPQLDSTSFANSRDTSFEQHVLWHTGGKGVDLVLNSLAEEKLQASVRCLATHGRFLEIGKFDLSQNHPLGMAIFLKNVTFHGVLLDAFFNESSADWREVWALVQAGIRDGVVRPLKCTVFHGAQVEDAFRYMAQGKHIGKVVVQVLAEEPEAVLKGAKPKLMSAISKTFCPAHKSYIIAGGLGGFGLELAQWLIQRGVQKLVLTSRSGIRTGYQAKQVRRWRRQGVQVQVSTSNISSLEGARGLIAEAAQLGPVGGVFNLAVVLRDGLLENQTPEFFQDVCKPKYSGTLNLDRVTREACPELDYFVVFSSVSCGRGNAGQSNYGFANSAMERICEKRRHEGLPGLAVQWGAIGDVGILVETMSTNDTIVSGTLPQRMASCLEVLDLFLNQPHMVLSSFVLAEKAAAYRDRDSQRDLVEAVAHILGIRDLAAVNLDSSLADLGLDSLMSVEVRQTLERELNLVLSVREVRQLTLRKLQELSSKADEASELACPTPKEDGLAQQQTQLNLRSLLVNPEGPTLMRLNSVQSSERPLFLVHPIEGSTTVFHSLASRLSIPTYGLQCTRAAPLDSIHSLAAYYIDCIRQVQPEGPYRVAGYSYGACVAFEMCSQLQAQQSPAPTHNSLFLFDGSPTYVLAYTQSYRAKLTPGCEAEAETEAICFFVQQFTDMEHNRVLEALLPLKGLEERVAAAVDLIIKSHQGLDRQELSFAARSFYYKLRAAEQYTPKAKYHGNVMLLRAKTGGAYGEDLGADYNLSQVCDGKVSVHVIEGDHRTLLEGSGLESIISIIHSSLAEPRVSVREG
UniProt Q99496, sequence (whole entry, looked up): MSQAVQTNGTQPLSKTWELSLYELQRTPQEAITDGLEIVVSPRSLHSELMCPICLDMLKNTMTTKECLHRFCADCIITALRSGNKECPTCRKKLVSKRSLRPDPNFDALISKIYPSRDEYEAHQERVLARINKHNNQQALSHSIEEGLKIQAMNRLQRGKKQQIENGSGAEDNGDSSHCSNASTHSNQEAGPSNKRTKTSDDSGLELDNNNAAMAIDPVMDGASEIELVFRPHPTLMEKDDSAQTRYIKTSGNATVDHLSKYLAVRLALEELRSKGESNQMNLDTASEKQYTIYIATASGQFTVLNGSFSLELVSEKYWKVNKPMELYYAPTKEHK
UniProt Q9NPE3, sequence (whole entry, looked up): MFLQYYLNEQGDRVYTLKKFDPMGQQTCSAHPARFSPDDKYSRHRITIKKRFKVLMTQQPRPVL
UniProt P35226, sequence (whole entry, looked up): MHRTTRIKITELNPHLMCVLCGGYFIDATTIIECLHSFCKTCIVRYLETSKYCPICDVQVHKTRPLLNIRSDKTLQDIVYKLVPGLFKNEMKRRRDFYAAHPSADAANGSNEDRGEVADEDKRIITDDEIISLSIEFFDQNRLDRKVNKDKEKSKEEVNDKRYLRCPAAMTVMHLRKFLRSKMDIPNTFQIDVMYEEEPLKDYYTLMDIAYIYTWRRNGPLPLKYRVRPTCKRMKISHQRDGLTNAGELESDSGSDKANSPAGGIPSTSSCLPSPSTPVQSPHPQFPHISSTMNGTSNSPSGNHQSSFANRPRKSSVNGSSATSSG

| Molecule | target or system | test | test system | conditions | scale | measurement | value |
| --- | --- | --- | --- | --- | --- | --- | --- |
| KRT1 (Homo sapiens, UniProt P04264) | Gamma-aminobutyric acid receptor-associated protein-like 2 (Homo sapiens, UniProt P60520) | cross-linking MS | – | with: DSSO or DMTMM | – | cross-linked residues | K472 to E96 |
| HSPA9 (Homo sapiens, UniProt P38646) | PSAT1 (Homo sapiens, UniProt Q9Y617) | cross-linking MS | cells | with: BDP-NHP | – | cross-linked residues | K314 to K127 |
| RAB7A (Homo sapiens, UniProt P51149) | VPS29 (Homo sapiens, UniProt Q9UBQ0) | cross-linking MS | cells | with: iqPIR | – | cross-linked residues | K137 to K30 |
| SLC4A1 (Homo sapiens, UniProt P02730) | RNF123 (Homo sapiens, UniProt Q5XPI4) | cross-linking MS | – | with: DSSO or DMTMM | – | cross-linked residues | D45 to K467 |
| SERPINF2 (Homo sapiens, UniProt P08697) | GALNT18 (Homo sapiens, UniProt Q6P9A2) | cross-linking MS | – | with: DSSO | – | cross-linked residues | K170 to K211 |
| PHGDH (Homo sapiens, UniProt O43175) | CYCS (Homo sapiens, UniProt P99999) | cross-linking MS | cells | with: BDP-NHP | – | cross-linked residues | K289 to K28 |
| BMI1 (Homo sapiens, UniProt P35226) | RNF2 (Homo sapiens, UniProt Q99496) | cross-linking MS | – | with: BS3 | – | cross-linked residues | K232 to K133 |
| BLTP3B (Homo sapiens, UniProt A0JNW5) | Histone H4 | cross-linking MS | – | with: DSSO | – | cross-linked residues | K408 to K78 |
| ALB (Homo sapiens, UniProt P02768) | LDHAL6A (Homo sapiens, UniProt Q6ZMR3) | cross-linking MS | – | with: DSSO | – | cross-linked residues | K223 to K318 |
| ROGDI (Homo sapiens, UniProt Q9GZN7) | WDR7 (Homo sapiens, UniProt Q9Y4E6) | cross-linking MS | purified complex | with: DSSO | – | cross-linked residues | K137 to K321 |
| KRT8 (Homo sapiens, UniProt P05787) | PLEC | cross-linking MS | cells | with: iqPIR | – | cross-linked residues | K122 to K3849 |
| ERH (Homo sapiens, UniProt P84090) | THRAP3 (Homo sapiens, UniProt Q9Y2W1) | cross-linking MS | cells | with: BDP-NHP | – | cross-linked residues | K90 to K519 |
| FGA (Homo sapiens, UniProt P02671) | BOD1L1 (Homo sapiens, UniProt Q8NFC6) | cross-linking MS | – | with: DSSO | – | cross-linked residues | K157 to K852 |
| DKC1 (Homo sapiens, UniProt O60832) | NOP10 (Homo sapiens, UniProt Q9NPE3) | cross-linking MS | cells | with: iqPIR | – | cross-linked residues | K80 to K53 |
| SPTBN1 (Homo sapiens, UniProt Q01082) | SPTAN1 (Homo sapiens, UniProt Q13813) | cross-linking MS | cells | with: BDP-NHP | – | cross-linked residues | K1815 to K613 |
| clathrin heavy chain 2, human | PP6C (human) | co-immunoprecipitation, IP-MS | CYB5R4 knockout cells | concentration not given | reference: CYB5R4 knockout over parental | log2 fold change | -0.6 |

| Molecule | target or system | test | test system | conditions | scale | measurement | value |
| --- | --- | --- | --- | --- | --- | --- | --- |
| S100A10 (Homo sapiens, UniProt P60903) | GTF3C1 (Homo sapiens, UniProt Q12789) | cross-linking MS | cells | with: BDP-NHP | – | cross-linked residues | K37 to K985 |
| TCP1 (Homo sapiens, UniProt P17987) | CCT2 (Homo sapiens, UniProt P78371) | cross-linking MS | – | with: DSSO | – | cross-linked residues | K126 to K46 |
| VIM (Homo sapiens, UniProt P08670) | PRPH (Homo sapiens, UniProt P41219) | cross-linking MS | cells | with: BDP-NHP | – | cross-linked residues | K373 to K290 |
| STAT5A (Homo sapiens, UniProt P42229) | Histone H4 | cross-linking MS | – | with: DSSO | – | cross-linked residues | K644 to K32 |
| DIAPH2 (Homo sapiens, UniProt O60879) | FGB (Homo sapiens, UniProt P02675) | cross-linking MS | – | with: DSSO | – | cross-linked residues | K502 to K83 |
| B1 (human SMC3) | PP6C (human) | co-immunoprecipitation, IP-MS | CYB5R4 knockout cells | concentration not given | reference: CYB5R4 knockout over parental | log2 fold change | -0.76 |
| FASN (Homo sapiens, UniProt P49327) | CPLX3 (Homo sapiens, UniProt Q8WVH0) | cross-linking MS | cells | with: iqPIR | – | cross-linked residues | K1704 to K14 |
| EEF1E1 (Homo sapiens, UniProt O43324) | DARS1 (Homo sapiens, UniProt P14868) | cross-linking MS | cells | with: BDP-NHP | – | cross-linked residues | K138 to K374 |
| HSP90AB1 (Homo sapiens, UniProt P08238) | PPIA (Homo sapiens, UniProt P62937) | cross-linking MS | cells | with: iqPIR | – | cross-linked residues | K435 to K76 |
| FGB (Homo sapiens, UniProt P02675) | ASCC3 (Homo sapiens, UniProt Q8N3C0) | cross-linking MS | – | with: DSSO | – | cross-linked residues | K83 to K2109 |
| UBTF (Homo sapiens, UniProt P17480) | PLEC | cross-linking MS | cells | with: iqPIR | – | cross-linked residues | K635 to K3183 |
| PSMD12 (Homo sapiens, UniProt O00232) | SPTBN5 (Homo sapiens, UniProt Q9NRC6) | cross-linking MS | – | with: DSSO or DMTMM | – | cross-linked residues | M1 to E3537 |
| HSPD1 (Homo sapiens, UniProt P10809) | ERC1 (Homo sapiens, UniProt Q8IUD2) | cross-linking MS | cells | with: iqPIR | – | cross-linked residues | K473 to K797 |
| ANK2 (Homo sapiens, UniProt Q01484) | SEMA5B (Homo sapiens, UniProt Q9P283) | cross-linking MS | – | with: DSSO or DMTMM | – | cross-linked residues | K3148 to D827 |
| TCP1 (Homo sapiens, UniProt P17987) | CCT4 (Homo sapiens, UniProt P50991) | cross-linking MS | cells | with: iqPIR | – | cross-linked residues | K515 to K55 |
| GAPDH (Homo sapiens, UniProt P04406) | TOP1 (Homo sapiens, UniProt P11387) | cross-linking MS | cells | with: BDP-NHP | – | cross-linked residues | K194 to K164 |

For quick reference, copied from above:
| Molecule | target or system | test | test system | conditions | scale | measurement | value |
| --- | --- | --- | --- | --- | --- | --- | --- |
| STAT5A (Homo sapiens, UniProt P42229) | Histone H4 | cross-linking MS | – | with: DSSO | – | cross-linked residues | K644 to K32 |
| DIAPH2 (Homo sapiens, UniProt O60879) | FGB (Homo sapiens, UniProt P02675) | cross-linking MS | – | with: DSSO | – | cross-linked residues | K502 to K83 |
| B1 (human SMC3) | PP6C (human) | co-immunoprecipitation, IP-MS | CYB5R4 knockout cells | concentration not given | reference: CYB5R4 knockout over parental | log2 fold change | -0.76 |
| FASN (Homo sapiens, UniProt P49327) | CPLX3 (Homo sapiens, UniProt Q8WVH0) | cross-linking MS | cells | with: iqPIR | – | cross-linked residues | K1704 to K14 |
